Assay results from different studies.
Compare with care: the assays were run in different laboratories. Numbers after ± are the reported error.

SMILES	system	conditions	tissue uptake
CCCC[C@H](NC(=O)CCCCCCCNC(=O)c1ccc(NN)nc1)C(=O)N[C@H]1CC(=O)NCCCC[C@@H](C(N)=O)NC(=O)[C@H](Cc2c[nH]c3ccccc23)NC(=O)[C@H](CCCNC(=N)N)NC(=O)[C@@H](Cc2ccccc2)NC(=O)[C@H](Cc2c[nH]cn2)NC1=O [technetium-99m labelled]	C57 mouse, B16/F1 melanoma, pancreas	2 h, added: NDP-MSH 10 µg (6.07 nmol) co-injected	0.31 ± 0.1 %ID/g
N=C(N)NCCC[C@@H]1NC(=O)[C@H](CCCCNC(=O)CC[C@H](NC(=O)CCOCCOCCOCCOCCNC(=O)CN2CCN(CC(=O)O)CCN(CC(=O)O)CCN(CC(=O)O)CC2)C(=O)NCCCC[C@@H]2NC(=O)[C@@H](Cc3ccccc3)NC(=O)[C@H](CC(=O)O)NC(=O)CNC(=O)[C@H](CCCNC(=N)N)NC2=O)NC(=O)[C@@H](Cc2ccccc2)NC(=O)[C@H](CC(=O)O)NC(=O)CNC1=O [indium-111 labelled]	female athymic nude mice, lungs	intravenous, 3 µCi, 72 h, U-87 MG glioma xenograft	0.33 ± 0.04 %ID/g
CSCC[C@H](NC(=O)[C@H](CC(C)C)NC(=O)[C@H](Cc1c[nH]cn1)NC(=O)CNC(=O)[C@@H](NC(=O)[C@H](C)NC(=O)[C@H](Cc1c[nH]c2ccccc12)NC(=O)[C@H](CCC(N)=O)NC(=O)CCCCCNC(=O)CNC(=O)CNC(=O)CNC(=O)CSC(C)=O)C(C)C)C(N)=O [technetium-99m labelled]	nude mouse, PC-3 xenograft, spleen	30 min, added: excess unlabelled conjugate	1.4 ± 0.12 %ID/g
CCCC[C@H](NC(=O)COCCOCCNC(=O)c1ccc(NN)nc1)C(=O)N[C@H]1CC(=O)NCCCC[C@@H](C(N)=O)NC(=O)[C@H](Cc2c[nH]c3ccccc23)NC(=O)[C@H](CCCNC(=N)N)NC(=O)[C@@H](Cc2ccccc2)NC(=O)[C@H](Cc2c[nH]cn2)NC1=O [technetium-99m labelled]	C57 mouse, female, B16/F1 melanoma, spleen	intravenous, 0.037 MBq, 2 h	0.11 ± 0.08 %ID/g
CC(C)C[C@H](NC(=O)[C@H](Cc1ccc(O)cc1)NC(=O)[C@@H](CCCNC(=N)N)NC(=O)[C@@H](CO)NC(=O)[C@H](Cc1ccccc1)NC(=O)[C@H](CC1CCCCC1)NC(=O)[C@H](CC(=O)O)NC(=O)CCC(C(=O)O)N1CCCN2CCN(CCCN(CC(=O)O)CC2)CC1)C(=O)N[C@@H](Cc1c[nH]c2ccccc12)C(=O)N[C@@H](CO)C(=O)O (some centres unmarked) [copper-64 labelled]	female NMRI nude mice, bone	1 h p.i.	0.9 ± 0.1 %ID/g
CSCC[C@H](NC(=O)[C@H](CC(C)C)NC(=O)[C@H](Cc1c[nH]cn1)NC(=O)CNC(=O)[C@@H](NC(=O)[C@H](C)NC(=O)[C@H](Cc1c[nH]c2ccccc12)NC(=O)[C@H](CCC(N)=O)NC(=O)CCCCNC(=O)CSCCSCCP(CO)CO)C(C)C)C(N)=O [technetium-99m labelled]	female CF-1 mouse, carcass	intravenous, 1 h	10.2 %ID
N=C(N)NCCC[C@@H]1NC(=O)[C@H](CCCCNC(=O)CNC(=O)CNC(=O)CNC(=O)CC[C@H](NC(=O)c2ccc(NN=Cc3ccccc3S(=O)(=O)O)nc2)C(=O)NCC(=O)NCC(=O)NCC(=O)NCCCC[C@@H]2NC(=O)[C@@H](Cc3ccccc3)NC(=O)[C@H](CC(=O)O)NC(=O)CNC(=O)[C@H](CCCNC(=N)N)NC2=O)NC(=O)[C@@H](Cc2ccccc2)NC(=O)[C@H](CC(=O)O)NC(=O)CNC1=O [technetium-99m labelled]	athymic nu/nu mouse, female, MDA-MB-435 xenograft, tumour	intravenous, 2 µCi, 30 min	8.48 ± 0.59 %ID/g
N=C(N)NCCC[C@@H]1NC(=O)[C@H](CCCCNC(=O)CCOCCOCCOCCOCCNC(=O)CC[C@H](NC(=O)CCOCCOCCOCCOCCNC(=O)CC[C@H](NC(=O)CN2CCN(CC(=O)O)CCN(CC(=O)O)CCN(CC(=O)O)CC2)C(=O)NCCOCCOCCOCCOCCC(=O)N[C@@H](CCC(=O)NCCOCCOCCOCCOCCC(=O)NCCCC[C@@H]2NC(=O)[C@@H](Cc3ccccc3)NC(=O)[C@H](CC(=O)O)NC(=O)CNC(=O)[C@H](CCCNC(=N)N)NC2=O)C(=O)NCCOCCOCCOCCOCCC(=O)NCCCC[C@@H]2NC(=O)[C@@H](Cc3ccccc3)NC(=O)[C@H](CC(=O)O)NC(=O)CNC(=O)[C@H](CCCNC(=N)N)NC2=O)C(=O)NCCOCCOCCOCCOCCC(=O)NCCCC[C@@H]2NC(=O)[C@@H](Cc3ccccc3)NC(=O)[C@H](CC(=O)O)NC(=O)CNC(=O)[C@H](CCCNC(=N)N)NC2=O)NC(=O)[C@@H](Cc2ccccc2)NC(=O)[C@H](CC(=O)O)NC(=O)CNC1=O [indium-111 labelled]	female athymic nude mice, kidney	intravenous, 3 µCi, 0.5 h, U-87 MG glioma xenograft	10.7 ± 1.79 %ID/g
N=C(N)NCCC[C@@H]1NC(=O)[C@H](CC(=O)NC23CNCCNCC(N)(CNCCNC2)CNCCNC3)NC(=O)[C@@H](Cc2ccccc2)NC(=O)[C@H](CC(=O)O)NC(=O)CNC1=O [copper-64 labelled]	Nu/Nu mouse, male, tumour-bearing, spleen	intravenous, 10 µCi, 2 h	1.11 ± 0.19 %ID/g
CCCC[C@H](NC(=O)CNC(=O)CNC(=O)c1ccc(NN)nc1)C(=O)N[C@H]1CC(=O)NCCCC[C@@H](C(N)=O)NC(=O)[C@H](Cc2c[nH]c3ccccc23)NC(=O)[C@H](CCCNC(=N)N)NC(=O)[C@@H](Cc2ccccc2)NC(=O)[C@H](Cc2c[nH]cn2)NC1=O [technetium-99m labelled]	C57 mouse, B16/F1 melanoma, intestines	2 h, added: L-lysine 12 mg	0.51 ± 0.15 %ID
N=C(N)NCCC[C@@H]1NC(=O)[C@H](CCCCNC(=O)CC[C@H](NC(=O)CCOCCOCCOCCOCCNC(=O)CC[C@H](NC(=O)CN2CCN(CC(=O)O)CCN(CC(=O)O)CCN(CC(=O)O)CC2)C(=O)NCCOCCOCCOCCOCCC(=O)N[C@@H](CCC(=O)NCCCC[C@@H]2NC(=O)[C@@H](Cc3ccccc3)NC(=O)[C@H](CC(=O)O)NC(=O)CNC(=O)[C@H](CCCNC(=N)N)NC2=O)C(=O)NCCCC[C@@H]2NC(=O)[C@@H](Cc3ccccc3)NC(=O)[C@H](CC(=O)O)NC(=O)CNC(=O)[C@H](CCCNC(=N)N)NC2=O)C(=O)NCCCC[C@@H]2NC(=O)[C@@H](Cc3ccccc3)NC(=O)[C@H](CC(=O)O)NC(=O)CNC(=O)[C@H](CCCNC(=N)N)NC2=O)NC(=O)[C@@H](Cc2ccccc2)NC(=O)[C@H](CC(=O)O)NC(=O)CNC1=O [indium-111 labelled]	female athymic nude mice, liver	intravenous, 3 µCi, 24 h, U-87 MG glioma xenograft	1.56 ± 0.37 %ID/g

For quick reference, copied from above:
SMILES	system	conditions	tissue uptake
CSCC[C@H](NC(=O)[C@H](CC(C)C)NC(=O)[C@H](Cc1c[nH]cn1)NC(=O)CNC(=O)[C@@H](NC(=O)[C@H](C)NC(=O)[C@H](Cc1c[nH]c2ccccc12)NC(=O)[C@H](CCC(N)=O)NC(=O)CCCCNC(=O)CSCCSCCP(CO)CO)C(C)C)C(N)=O [technetium-99m labelled]	female CF-1 mouse, carcass	intravenous, 1 h	10.2 %ID
